# Published values of several laboratories.
# Each line is one published result; not all experiments were run side by side. Values joined by “and” are separate records of one study, mostly repeats; a detail may differ.
# Target: Ribosomal protein S6 kinase beta-1 (RPS6KB1, Homo sapiens, UniProt P23443)
# UniProt P23443, sequence (whole entry, looked up): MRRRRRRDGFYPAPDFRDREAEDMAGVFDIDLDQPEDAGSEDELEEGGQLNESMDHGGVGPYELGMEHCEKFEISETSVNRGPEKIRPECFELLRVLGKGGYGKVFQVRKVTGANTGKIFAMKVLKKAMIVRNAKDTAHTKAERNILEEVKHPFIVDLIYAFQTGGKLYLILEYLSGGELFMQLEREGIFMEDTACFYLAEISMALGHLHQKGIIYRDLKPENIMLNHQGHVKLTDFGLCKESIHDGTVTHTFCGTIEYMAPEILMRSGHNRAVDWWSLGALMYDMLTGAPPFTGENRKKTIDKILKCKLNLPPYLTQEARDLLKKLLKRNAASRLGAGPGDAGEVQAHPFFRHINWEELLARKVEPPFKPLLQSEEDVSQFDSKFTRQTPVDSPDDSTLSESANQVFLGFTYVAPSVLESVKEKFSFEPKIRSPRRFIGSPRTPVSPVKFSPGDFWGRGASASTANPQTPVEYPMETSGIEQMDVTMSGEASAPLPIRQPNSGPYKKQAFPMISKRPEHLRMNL
Compound,assay,setting,scale,endpoint,result
C=CC(=O)Nc1cccc(-c2cnc3[nH]cc(C(=O)NC(C)(C)C)c3n2)c1,"enzyme activity, inhibitor",0.1 µM,,inhibition,2%
C=CC(=O)N1CCc2ccc(-n3c(=O)ccc4cnc5ccc(-c6cnn(C)c6)cc5c43)cc21,KINOMEscan,1 µM,relative to: DMSO control,remaining binding,95%
CCn1cc(C(=O)O)c(=O)c2c(N)c(F)c(NC3CCCCC3)cc21,kinase activity,"0.1 µM, together with: ATP at Km",,inhibition,-8.3%
Cc1[nH]nc2c1N=C(c1ccccc1Cl)c1cnc(N3CCOCC3)cc1N2,"enzyme activity, inhibitor",0.5 µM,,inhibition,28.1%
COc1ccc(C(=O)/C=C/c2ccccc2-c2c[nH]c3ccc(C#N)cc23)c(O)c1,"enzyme activity, inhibitor",20 µM,,inhibition,28%
Nc1nc(Nc2ccccc2)sc1C(=O)c1ccccc1,"enzyme activity, inhibitor",10 µM,,remaining activity,53%
Cc1ccc(-c2c(/C=C(\C#N)C(=O)NC(C)C)n(CCCO)c3ncnc(N)c23)cc1,"cell-free assay, competition with immobilised ligand",1 µM,,remaining binding,87%
Cc1cccc(O[C@H]2CCC[C@@H](C(C)CNCc3ccncc3)C2)c1 (relative stereo),"enzyme activity, inhibitor",1 µM,,inhibition,4%
COCC12C(=O)NC3C4(C(OC)CC1O)C1CC5(O)C(OC)C(O)C(OC(C)=O)(C1C5OC(=O)c1ccccc1)C3(O)C(OC)C24 (stereo not shown),"kinase activity, inhibitor, ProQinase kinase profiling",25 µM,relative to: control,remaining activity,107% and 108%
CC(C)=CC1OC(C)(C)C2C=C3C(=O)C(Cl)=CC(O)C3C3C(O)C4OC4C(=O)C132 (stereo not shown),"cell-free assay, competition with immobilised ligand",10 µM,,remaining binding,77%
Cc1cccc(-c2ccc3nc(NC(=O)C4CCCO4)nn3c2)c1 (stereo not shown),"enzyme activity, Dundee kinase panel",10 µM,,remaining activity,95%
Cc1nc2c(F)cc(-c3nc(Nc4ccc(CNC(=O)CCCCCCC(=O)NO)cc4)ncc3F)cc2n1C(C)C,"enzyme activity, inhibitor",1 µM,,inhibition,78%
COc1cc(Nc2nc(C)cc(-c3cnn4nc(OC)ccc34)n2)cc(C(F)(F)F)c1,"binding, competition with immobilised ligand",1 µM,,remaining binding,87%
